Measurements gathered from unrelated publications.
Compare with care: the assays were run in different laboratories. “And” joins repeats or separate records; there may be more than shown. Numbers after ± are the reported error.

For `O=C([O-])CN1CCN(CC(=O)[O-])CCN(CC(=O)NC[C@H]2CC[C@H](C(=O)N[C@H](Cc3cnc4ccccc4c3)C(=O)NCCCC[C@H](NC(=O)N[C@@H](CCC(=O)O)C(=O)O)C(=O)O)CC2)CCN(CC(=O)[O-])CC1.[64Cu+2]`, the tissue uptake was 13.1 %ID/g (ex vivo gamma counting; 22Rv1 tumour-bearing mice, tumor; intravenous, 0.74 MBq, 1 h post-injection).
For `CCCC[C@H](NC(=O)CNC(=O)CNC(=O)[C@H](CCCCNC(=O)C(C)c1ccc(CC(C)C)cc1)NC(=O)CN1CCN(CC(=O)O)CCN(CC(=O)O)CCN(CC(=O)O)CC1)C(=O)N[C@H]1CC(=O)NCCCC[C@@H](C(N)=O)NC(=O)[C@H](Cc2c[nH]c3ccccc23)NC(=O)[C@H](CCCNC(=N)N)NC(=O)[C@@H](Cc2ccccc2)NC(=O)[C@H](Cc2c[nH]cn2)NC1=O` (stereo partly drawn) [lutetium-177 labelled], the tissue uptake was 2.64 ± 2.04 %ID/g (C57 mice, tumour-bearing, stomach; 2 h).
For `N#C[C@@H]1CCCN1C(=O)CNC(=O)c1ccnc2ccc(OCCCN3CCN(C(=O)CCc4ccc(O)c(CN5CCN6CC(=O)[O][Al-]([18F])([O]C(=O)C5)[O]c5ccc(CCC(=O)N7CCN(CCCOc8ccc9nccc(C(=O)NCC(=O)N%10CCC[C@H]%10C#N)c9c8)CC7)cc5C6)c4)CC3)cc12` (stereo partly drawn), the tissue uptake was 1.48 ± 0.26 %ID/g (BALB/c nude mice, U-87 MG xenograft, heart; 2 h).
With `O=C(NCC1OC2CCC=CCCC2O1)c1ccc([18F])nc1` (stereo not drawn) the tissue uptake was 5 ± 2.2 %ID/g (healthy female BALB/c nude mice, bladder; intravenous, 7.4 MBq per mouse, 2 min).
`CCCC[C@H](NC(=O)COCCOCCNC(=O)CN1CCN(CC(=O)O)CCN(CC(=O)O)CC1)C(=O)N[C@H]1CC(=O)NCCCC[C@@H](C(N)=O)NC(=O)[C@H](Cc2c[nH]c3ccccc23)NC(=O)[C@H](CCCNC(=N)N)NC(=O)[C@@H](Cc2ccccc2)NC(=O)[C@H](Cc2c[nH]cn2)NC1=O` [fluorine-18 labelled] has a tissue uptake of 0.28 ± 0.05 %ID/g (C57 mice B16-F10 melanoma, pancreas; intravenous, 0.37 MBq, 0.5 h).
The tissue uptake of `CCCC[C@H](NC(=O)CNC(=O)CNC(=O)[C@H](CCCCNC(=O)[C@H](CCN)NC(=O)C(C)c1ccc(CC(C)C)cc1)NC(=O)CN1CCN(CC(=O)O)CCN(CC(=O)O)CCN(CC(=O)O)CC1)C(=O)N[C@H]1CC(=O)NCCCC[C@@H](C(N)=O)NC(=O)[C@H](Cc2c[nH]c3ccccc23)NC(=O)[C@H](CCCNC(=N)N)NC(=O)[C@@H](Cc2ccccc2)NC(=O)[C@H](Cc2c[nH]cn2)NC1=O` (stereo partly drawn) [lutetium-177 labelled] is reported as 22.64 ± 0.16 %ID/g (C57 mice, tumour-bearing, tumor; 2 h).
`N#C[C@@H]1CCCN1C(=O)CNC(=O)c1ccnc2ccc(OCCCN3CCN(C(=O)CCc4ccc5c(c4)CN4CCN6CC(=O)[O][68Ga-]([O]C(=O)C4)([O]5)[O]c4ccc(CCC(=O)N5CCN(CCCOc7ccc8nccc(C(=O)NCC(=O)N9CCC[C@H]9C#N)c8c7)CC5)cc4C6)CC3)cc12` gave a tissue uptake of 1.05 ± 0.14 %ID/g (BALB/c nude mice, U-87 MG xenograft, heart; 1 h).
For `COc1ccc(Nc2nc(Nc3ccc(OCCOCC[18F])cc3)ncc2Br)cc1`, the tissue uptake was 2.37 ± 0.15 %ID/g (ICR mice, S180 tumour-bearing, heart; intravenous, 370 kBq, 5 min).
The tissue uptake of `CCCC[C@H](NC(=O)CCCCCCCNC(=O)CN1CCN(CC(=O)O)CCN(CC(=O)O)CC1)C(=O)N[C@H]1CC(=O)NCCCC[C@@H](C(N)=O)NC(=O)[C@H](Cc2c[nH]c3ccccc23)NC(=O)[C@H](CCCNC(=N)N)NC(=O)[C@@H](Cc2ccccc2)NC(=O)[C@H](Cc2c[nH]cn2)NC1=O` [fluorine-18 labelled] is reported as 0.11 ± 0.03 %ID/g (C57 mice, B16/F10 melanoma, pancreas; intravenous, 1 h, added: NDP-MSH 10 µg).
`N#C[C@@H]1CCCN1C(=O)CNC(=O)c1ccnc2ccc(OCCCN3CCN(C(=O)CCc4ccc5c(c4)CN4CCN(Cc6cc(CCC(=O)O)ccc6O)CC(=O)[O][Al-]([18F])([O]C(=O)C4)[O]5)CC3)cc12` (stereo partly drawn) gave a tissue uptake of 25.4 ± 11.3 %ID/g (BALB/c nude mice, U-87 MG tumour, gallbladder; 60 min post-injection).
With `COc1ccc2c(c1)C(C)(C)C(/C=C/C1=C(Oc3ccc(C(=O)NCCCCOc4cc(CN(Cc5ccccn5)Cc5ccccn5)cc(CN(Cc5ccccn5)Cc5ccccn5)c4)cc3)C(=C/C=C3/N(CCCCS(=O)(=O)[O-])c4ccc(OC)cc4C3(C)C)CCC1)=[N+]2CCCCS(=O)(=O)[O-].O=[N+]([O-])[O-].O=[N+]([O-])[O-].[99Tc+].[C-]#[O+].[C-]#[O+].[C-]#[O+].[Zn+2]` the tissue uptake was 0.51 %ID/g and 1.58 %ID/g and 0.57 %ID/g and 2.32 %ID/g (BALB/c mice, S. aureus myositis, stomach with contents; 12 h post-injection).
`O=C(O)CCCOc1ccc([18F])cc1-c1cc(-c2ccccc2C(F)(F)F)n(-c2ccccc2)n1` has a tissue uptake of 0.54 ± 0.03 %ID/g (mice, large intestine; intravenous, 5 min).
For `CC(C)C[C@H](NC(=O)[C@@H](CCCCNC(=O)[C@@H](Cc1ccccc1)NC(=O)CCCCCCCNC(=O)CN1CCN(CC(=O)O)CCN(CC(=O)O)CCN(CC(=O)O)CC1)NC(=O)[C@H](Cc1ccc(O)cc1)NC(=O)[C@H](CO)NC(=O)[C@H](Cc1c[nH]c2ccccc12)NC(=O)[C@H](Cc1c[nH]cn1)NC(=O)[C@@H]1CCC(=O)N1)C(=O)N[C@@H](CCCNC(=N)N)C(=O)N1CCC[C@H]1C(=O)NCC(N)=O` [indium-111 labelled], the tissue uptake was 1.47 ± 0.42 %ID/g (male athymic nude mice, DU-145 prostate cancer xenograft, blood; intravenous, 0.037 MBq, 0.5 h).
`CCCC[C@H](NC(=O)CNC(=O)CNC(=O)[C@H](CCCCNC(=O)[C@H](CC(=O)O)NC(=O)C(C)c1ccc(CC(C)C)cc1)NC(=O)CN1CCN(CC(=O)O)CCN(CC(=O)O)CCN(CC(=O)O)CC1)C(=O)N[C@H]1CC(=O)NCCCC[C@@H](C(N)=O)NC(=O)[C@H](Cc2c[nH]c3ccccc23)NC(=O)[C@H](CCCNC(=N)N)NC(=O)[C@@H](Cc2ccccc2)NC(=O)[C@H](Cc2c[nH]cn2)NC1=O` (stereo partly drawn) [lutetium-177 labelled] has a tissue uptake of 0.29 ± 0.05 %ID/g (C57 mice, tumour-bearing, pancreas; 2 h).
`Cc1cc(C)n(CCN(CCN)CCCCCCNC(=O)[C@@H](N)Cc2c[nH]cn2)n1.[99Tc+].[C-]#[O+].[C-]#[O+].[C-]#[O+]` gave a tissue uptake of 18.2 ± 3.35 %IA/g (BALB/c nude mice, A549 xenograft, intestine; intravenous, 4 h).
For `O=C(NCC1OC2CCC=CCCC2O1)c1ccc(COCCOCCOCC[18F])cc1` (stereo not drawn), the tissue uptake was 4.5 ± 0.4 %ID/g (healthy female BALB/c nude mice, bladder; intravenous, 7.4 MBq per mouse, 15 min).
`Cc1cc(C)n(CCN(CCN)CCCCCCNC(=O)[C@@H](N)Cc2c[nH]c3ccccc23)n1.[99Tc+].[C-]#[O+].[C-]#[O+].[C-]#[O+]` has a tissue uptake of 5.08 ± 0.39 %IA/g (BALB/c nude mice, A549 xenograft, lung; intravenous, 15 min).
Under tissue uptake, `O=C([O-])CN1CCN(CC(=O)O)CCN(CC(=O)[O-])CCN(CC(=O)NCC2CCC(C(=O)NC(Cc3ccc4ccccc4c3)C(=O)NCCCCC(NC(=O)NC(CCC(=O)O)C(=O)O)C(=O)O)CC2)CC1.[212Pb+2]` (stereo not drawn) is recorded as “not detected” (athymic mice, C4-2 prostate cancer xenograft, salivary gland; intravenous, 2 h, 212Pb-labelled).

Repeated from above:
The tissue uptake of `CCCC[C@H](NC(=O)CNC(=O)CNC(=O)[C@H](CCCCNC(=O)[C@H](CCN)NC(=O)C(C)c1ccc(CC(C)C)cc1)NC(=O)CN1CCN(CC(=O)O)CCN(CC(=O)O)CCN(CC(=O)O)CC1)C(=O)N[C@H]1CC(=O)NCCCC[C@@H](C(N)=O)NC(=O)[C@H](Cc2c[nH]c3ccccc23)NC(=O)[C@H](CCCNC(=N)N)NC(=O)[C@@H](Cc2ccccc2)NC(=O)[C@H](Cc2c[nH]cn2)NC1=O` (stereo partly drawn) [lutetium-177 labelled] is reported as 22.64 ± 0.16 %ID/g (C57 mice, tumour-bearing, tumor; 2 h).
`O=C(O)CCCOc1ccc([18F])cc1-c1cc(-c2ccccc2C(F)(F)F)n(-c2ccccc2)n1` has a tissue uptake of 0.54 ± 0.03 %ID/g (mice, large intestine; intravenous, 5 min).
